Results from different studies.
Numbers after ± are the reported error.
BCHE: Cholinesterase (BCHE, Homo sapiens, UniProt P06276)
PSMB5: Proteasome Macropain subunit MB1 (PSMB5, Homo sapiens, UniProt P28074)

By UniProt entry, the sequences of proteins in these tests, tags left out. Residues count along the entry.
UniProt P06276, whole entry, looked up: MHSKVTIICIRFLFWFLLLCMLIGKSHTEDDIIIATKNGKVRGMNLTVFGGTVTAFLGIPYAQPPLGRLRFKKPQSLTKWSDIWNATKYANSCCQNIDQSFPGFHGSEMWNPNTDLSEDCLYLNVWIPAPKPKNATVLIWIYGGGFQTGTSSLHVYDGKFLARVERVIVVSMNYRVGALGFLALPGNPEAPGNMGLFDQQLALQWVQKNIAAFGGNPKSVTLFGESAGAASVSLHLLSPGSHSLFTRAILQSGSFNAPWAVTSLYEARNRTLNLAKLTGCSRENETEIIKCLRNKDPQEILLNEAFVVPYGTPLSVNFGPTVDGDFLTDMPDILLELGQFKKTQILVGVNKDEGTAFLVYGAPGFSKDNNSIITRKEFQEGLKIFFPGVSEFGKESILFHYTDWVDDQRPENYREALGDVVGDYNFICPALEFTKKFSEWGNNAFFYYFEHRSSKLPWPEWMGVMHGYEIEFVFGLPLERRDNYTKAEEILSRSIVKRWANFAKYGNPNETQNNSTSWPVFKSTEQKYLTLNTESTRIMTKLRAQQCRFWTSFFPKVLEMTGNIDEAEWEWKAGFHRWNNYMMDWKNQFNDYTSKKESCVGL
UniProt P28074, whole entry, looked up: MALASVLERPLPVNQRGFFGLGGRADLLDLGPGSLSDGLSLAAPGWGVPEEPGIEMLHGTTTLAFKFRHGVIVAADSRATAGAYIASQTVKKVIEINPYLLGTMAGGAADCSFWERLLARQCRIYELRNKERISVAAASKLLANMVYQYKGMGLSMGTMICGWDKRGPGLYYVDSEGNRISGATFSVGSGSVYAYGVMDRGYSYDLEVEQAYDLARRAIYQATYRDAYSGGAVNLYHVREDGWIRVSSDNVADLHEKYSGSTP
UniProt P28072, whole entry, looked up: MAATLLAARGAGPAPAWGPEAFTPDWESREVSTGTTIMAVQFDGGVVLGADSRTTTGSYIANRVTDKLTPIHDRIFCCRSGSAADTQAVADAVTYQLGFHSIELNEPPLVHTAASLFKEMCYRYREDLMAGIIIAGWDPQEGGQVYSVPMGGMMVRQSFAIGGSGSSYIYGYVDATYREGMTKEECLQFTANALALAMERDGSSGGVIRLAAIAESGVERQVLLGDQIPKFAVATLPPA
UniProt P21447, whole entry: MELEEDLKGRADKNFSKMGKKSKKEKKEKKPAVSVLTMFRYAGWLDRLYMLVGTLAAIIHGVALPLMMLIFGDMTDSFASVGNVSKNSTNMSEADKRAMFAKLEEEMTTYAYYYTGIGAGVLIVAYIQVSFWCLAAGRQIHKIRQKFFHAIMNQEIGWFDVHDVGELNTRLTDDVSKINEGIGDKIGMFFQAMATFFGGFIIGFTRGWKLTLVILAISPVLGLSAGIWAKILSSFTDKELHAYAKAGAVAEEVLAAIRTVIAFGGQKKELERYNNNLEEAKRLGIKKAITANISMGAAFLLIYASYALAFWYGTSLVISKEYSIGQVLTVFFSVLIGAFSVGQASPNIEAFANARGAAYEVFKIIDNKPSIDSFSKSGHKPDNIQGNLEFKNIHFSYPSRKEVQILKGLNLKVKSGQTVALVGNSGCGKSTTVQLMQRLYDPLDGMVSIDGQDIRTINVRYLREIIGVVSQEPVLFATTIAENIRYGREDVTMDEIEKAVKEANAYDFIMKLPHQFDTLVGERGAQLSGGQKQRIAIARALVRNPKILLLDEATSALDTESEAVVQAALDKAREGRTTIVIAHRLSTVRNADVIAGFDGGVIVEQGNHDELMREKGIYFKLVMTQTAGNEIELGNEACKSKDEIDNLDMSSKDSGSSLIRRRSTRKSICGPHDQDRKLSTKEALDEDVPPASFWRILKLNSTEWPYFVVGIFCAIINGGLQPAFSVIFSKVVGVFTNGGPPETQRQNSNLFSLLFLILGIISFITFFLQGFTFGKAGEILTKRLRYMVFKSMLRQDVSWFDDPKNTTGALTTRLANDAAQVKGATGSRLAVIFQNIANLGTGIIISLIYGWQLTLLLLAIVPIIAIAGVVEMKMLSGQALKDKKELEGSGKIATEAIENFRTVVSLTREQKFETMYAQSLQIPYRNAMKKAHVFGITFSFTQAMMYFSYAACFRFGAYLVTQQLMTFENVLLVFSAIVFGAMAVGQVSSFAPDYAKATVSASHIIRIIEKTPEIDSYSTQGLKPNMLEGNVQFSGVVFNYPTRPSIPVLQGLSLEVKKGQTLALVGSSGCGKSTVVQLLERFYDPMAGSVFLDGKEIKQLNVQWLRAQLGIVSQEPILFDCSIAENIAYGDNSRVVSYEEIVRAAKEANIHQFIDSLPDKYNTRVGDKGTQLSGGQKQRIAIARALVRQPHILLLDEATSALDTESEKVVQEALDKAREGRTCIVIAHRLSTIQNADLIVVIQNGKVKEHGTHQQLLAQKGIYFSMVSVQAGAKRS
UniProt Q13133, whole entry, looked up: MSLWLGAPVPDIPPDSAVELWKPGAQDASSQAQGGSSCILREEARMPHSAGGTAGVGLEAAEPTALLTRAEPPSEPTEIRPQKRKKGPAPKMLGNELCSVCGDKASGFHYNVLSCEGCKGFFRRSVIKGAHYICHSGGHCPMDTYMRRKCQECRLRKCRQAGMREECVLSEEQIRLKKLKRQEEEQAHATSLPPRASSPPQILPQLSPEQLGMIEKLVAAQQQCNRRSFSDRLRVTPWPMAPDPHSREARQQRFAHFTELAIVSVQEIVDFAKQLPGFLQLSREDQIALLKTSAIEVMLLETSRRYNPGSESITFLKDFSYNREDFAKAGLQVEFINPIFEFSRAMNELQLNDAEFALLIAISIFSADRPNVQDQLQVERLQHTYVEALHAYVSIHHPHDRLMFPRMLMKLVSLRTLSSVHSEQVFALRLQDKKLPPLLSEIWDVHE
UniProt P40763, 2-770 limits assumed: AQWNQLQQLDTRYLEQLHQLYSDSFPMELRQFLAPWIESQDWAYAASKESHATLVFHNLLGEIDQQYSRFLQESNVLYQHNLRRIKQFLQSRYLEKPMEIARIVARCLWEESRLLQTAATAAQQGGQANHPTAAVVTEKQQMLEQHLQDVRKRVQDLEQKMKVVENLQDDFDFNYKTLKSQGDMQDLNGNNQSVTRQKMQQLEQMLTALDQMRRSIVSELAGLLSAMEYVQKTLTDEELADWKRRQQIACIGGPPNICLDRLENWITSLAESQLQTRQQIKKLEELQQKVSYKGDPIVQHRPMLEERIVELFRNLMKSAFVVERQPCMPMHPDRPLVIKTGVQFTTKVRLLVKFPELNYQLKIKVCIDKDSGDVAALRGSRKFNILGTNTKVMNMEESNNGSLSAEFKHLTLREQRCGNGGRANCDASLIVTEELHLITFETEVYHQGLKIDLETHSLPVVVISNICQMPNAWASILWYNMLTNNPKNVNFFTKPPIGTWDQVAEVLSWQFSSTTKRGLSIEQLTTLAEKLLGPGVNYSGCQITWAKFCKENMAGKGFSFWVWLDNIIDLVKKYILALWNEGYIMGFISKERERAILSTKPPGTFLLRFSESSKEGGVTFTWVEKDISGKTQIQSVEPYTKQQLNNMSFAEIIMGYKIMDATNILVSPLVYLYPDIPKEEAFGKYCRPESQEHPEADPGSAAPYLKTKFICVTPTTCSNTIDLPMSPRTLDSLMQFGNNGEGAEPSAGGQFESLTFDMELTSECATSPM
UniProt Q62645, 28-1323 M586A limits assumed: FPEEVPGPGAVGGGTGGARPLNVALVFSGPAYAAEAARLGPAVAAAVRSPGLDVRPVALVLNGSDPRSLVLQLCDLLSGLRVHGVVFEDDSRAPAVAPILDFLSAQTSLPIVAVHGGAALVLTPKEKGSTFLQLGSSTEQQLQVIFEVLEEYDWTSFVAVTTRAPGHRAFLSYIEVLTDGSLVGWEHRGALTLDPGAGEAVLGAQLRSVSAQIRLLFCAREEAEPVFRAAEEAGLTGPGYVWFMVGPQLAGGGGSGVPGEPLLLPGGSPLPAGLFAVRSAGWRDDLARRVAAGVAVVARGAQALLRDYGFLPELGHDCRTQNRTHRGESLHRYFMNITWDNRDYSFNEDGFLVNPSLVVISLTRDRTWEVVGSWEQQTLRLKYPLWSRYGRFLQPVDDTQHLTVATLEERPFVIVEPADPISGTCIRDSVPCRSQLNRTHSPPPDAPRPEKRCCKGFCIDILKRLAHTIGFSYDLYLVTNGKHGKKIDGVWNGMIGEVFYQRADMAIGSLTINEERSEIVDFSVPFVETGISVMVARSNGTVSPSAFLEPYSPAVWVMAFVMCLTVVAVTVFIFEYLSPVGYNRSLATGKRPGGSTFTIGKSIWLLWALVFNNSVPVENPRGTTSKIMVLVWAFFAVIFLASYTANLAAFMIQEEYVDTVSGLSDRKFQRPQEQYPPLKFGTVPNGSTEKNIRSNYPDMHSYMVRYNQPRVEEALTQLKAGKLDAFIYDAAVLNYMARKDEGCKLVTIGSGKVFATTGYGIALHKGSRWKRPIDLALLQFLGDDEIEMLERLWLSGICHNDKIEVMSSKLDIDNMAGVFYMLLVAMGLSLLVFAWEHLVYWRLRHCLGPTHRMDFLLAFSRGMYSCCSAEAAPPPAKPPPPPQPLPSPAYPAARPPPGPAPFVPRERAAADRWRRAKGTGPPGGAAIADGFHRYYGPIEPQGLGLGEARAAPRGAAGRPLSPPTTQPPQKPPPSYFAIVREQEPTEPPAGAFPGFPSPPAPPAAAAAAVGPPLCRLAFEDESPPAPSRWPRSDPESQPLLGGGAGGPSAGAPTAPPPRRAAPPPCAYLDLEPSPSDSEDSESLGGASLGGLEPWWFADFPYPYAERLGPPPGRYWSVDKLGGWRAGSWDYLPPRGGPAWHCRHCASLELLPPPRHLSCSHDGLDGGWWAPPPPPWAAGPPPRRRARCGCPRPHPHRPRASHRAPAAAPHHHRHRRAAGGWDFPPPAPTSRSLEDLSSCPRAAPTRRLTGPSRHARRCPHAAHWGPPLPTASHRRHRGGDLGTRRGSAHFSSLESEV
UniProt P0A0C1, whole entry: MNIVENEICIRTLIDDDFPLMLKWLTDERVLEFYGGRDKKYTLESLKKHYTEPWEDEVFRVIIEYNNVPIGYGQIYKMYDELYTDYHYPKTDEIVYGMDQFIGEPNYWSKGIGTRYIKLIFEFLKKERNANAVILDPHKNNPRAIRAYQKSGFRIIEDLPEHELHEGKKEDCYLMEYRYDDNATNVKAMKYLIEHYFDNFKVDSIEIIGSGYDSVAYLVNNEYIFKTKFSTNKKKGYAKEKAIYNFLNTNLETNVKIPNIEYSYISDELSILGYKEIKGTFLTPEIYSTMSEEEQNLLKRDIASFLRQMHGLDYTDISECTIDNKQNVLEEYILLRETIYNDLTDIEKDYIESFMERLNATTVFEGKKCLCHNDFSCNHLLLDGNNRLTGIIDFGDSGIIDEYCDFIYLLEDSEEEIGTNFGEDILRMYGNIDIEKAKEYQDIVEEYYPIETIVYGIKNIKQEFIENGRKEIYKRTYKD
UniProt P19784, whole entry: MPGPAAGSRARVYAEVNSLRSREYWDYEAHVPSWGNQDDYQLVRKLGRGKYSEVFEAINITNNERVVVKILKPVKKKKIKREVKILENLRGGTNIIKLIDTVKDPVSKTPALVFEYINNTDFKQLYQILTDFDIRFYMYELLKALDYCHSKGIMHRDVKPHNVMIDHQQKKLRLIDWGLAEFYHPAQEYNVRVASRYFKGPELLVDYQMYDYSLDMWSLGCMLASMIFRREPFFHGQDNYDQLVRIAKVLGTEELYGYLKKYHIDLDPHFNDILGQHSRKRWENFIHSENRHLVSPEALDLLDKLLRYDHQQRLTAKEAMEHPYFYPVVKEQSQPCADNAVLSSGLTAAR
UniProt P08173, whole entry: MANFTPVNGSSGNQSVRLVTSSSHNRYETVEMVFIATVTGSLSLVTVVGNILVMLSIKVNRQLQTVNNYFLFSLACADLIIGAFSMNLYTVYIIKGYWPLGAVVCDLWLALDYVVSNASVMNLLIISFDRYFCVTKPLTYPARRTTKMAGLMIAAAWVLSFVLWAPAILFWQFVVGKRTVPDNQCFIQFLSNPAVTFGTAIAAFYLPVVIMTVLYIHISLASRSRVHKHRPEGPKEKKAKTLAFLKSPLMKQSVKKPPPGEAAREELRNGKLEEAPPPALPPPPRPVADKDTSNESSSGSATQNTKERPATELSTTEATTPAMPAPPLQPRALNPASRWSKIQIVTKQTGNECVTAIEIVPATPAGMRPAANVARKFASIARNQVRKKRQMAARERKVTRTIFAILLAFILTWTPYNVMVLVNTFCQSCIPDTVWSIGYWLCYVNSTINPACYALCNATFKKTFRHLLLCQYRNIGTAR
UniProt Q99436, whole entry, looked up: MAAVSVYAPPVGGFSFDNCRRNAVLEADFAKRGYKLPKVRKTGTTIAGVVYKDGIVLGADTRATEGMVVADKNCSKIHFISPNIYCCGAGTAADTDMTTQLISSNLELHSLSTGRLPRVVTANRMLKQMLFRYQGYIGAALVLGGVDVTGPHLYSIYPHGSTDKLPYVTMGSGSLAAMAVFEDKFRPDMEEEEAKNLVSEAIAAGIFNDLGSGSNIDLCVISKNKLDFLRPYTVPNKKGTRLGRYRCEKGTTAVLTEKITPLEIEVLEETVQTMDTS

| Compound | target | test | test system | setting | scale | quantity | result |
| --- | --- | --- | --- | --- | --- | --- | --- |
| O=c1oc(-c2ccccn2)ns1 | Proteasome subunit beta type-6 (PSMB6, Homo sapiens, UniProt P28072) | inactivation | human PA28-activated proteasome | – | – | kobs/[I] | 0.72 M⁻¹ s⁻¹ |
| C[C@]12CCC(=O)C=C1CCC1C2CC[C@]2(C)C(n3cnc4ccccc43)=CCC12 (stereo partly shown) | Androgen receptor (AR, Homo sapiens, UniProt P10275) | reporter gene, antagonist | LAPC4 | 10 µM, 18 h, with: DHT 10 nM | – | inhibition | 90 to 99% |
| O=C(N/N=C/c1cc([N+](=O)[O-])ccc1O)c1ccc(O)cc1O | D-3-phosphoglycerate dehydrogenase (PHGDH, Homo sapiens, UniProt O43175) | enzyme activity, inhibitor, PSAT1-coupled | – | – | – | maximum inhibition | 67% |
| COc1ccc(OC[C@H]2c3cccn3CC(=O)N2Cc2cccc(F)c2)cc1 | Glutamate receptor ionotropic, NMDA 2A, with GluN1 (Grin2a, Rattus norvegicus, UniProt Q00959) | ion current, whole-cell patch clamp | HEK293T cells, transfected | 10 µM, with: 1 mM glutamate for 10 ms plus 100 µM glycine | – | charge transfer | -4.8 ± 2.7 nA·ms |
| CC(=O)O[C@H]1C(=O)[C@]2(C)[C@@H](OC(=O)[C@H](C)NC(=O)c3ccc4c(c3)C(=O)OC43c4cc(F)c(O)cc4Oc4cc(O)c(F)cc43)C[C@H]3OC[C@@]3(OC(C)=O)[C@H]2[C@H](OC(=O)c2ccccc2)[C@]2(O)C[C@H](OC(=O)[C@H](O)[C@@H](NC(=O)c3ccccc3)c3ccccc3)C(C)=C1C2(C)C | ATP-dependent translocase ABCB1 (Abcb1a, Mus musculus, UniProt P21447) | – | – | concentration not given, nucleotide-bound or vanadate-trapped | relative to: nucleotide-free state | change in Kd | no effect |
| CCCCCCCCCCC/C=C/c1ccc2cc(CP(=O)(O)O)ccc2c1 | Autotaxin (ENPP2, Homo sapiens, UniProt Q13822) | inhibitor | – | enzyme-substrate complex | – | Ki' | 1.01 µM |
| O=C(NOCC1CC1)c1cc(Br)c(F)c(F)c1Nc1ccc(I)cc1Cl | BCHE | enzyme activity, fluorescence | – | – | – | efficacy | -53.6 ± 17.4% |
| CC[C@H](C)[C@H]1O[C@]2(CC[C@@H]1C)C[C@@H]1C[C@@H](C/C=C(\C)[C@@H](O[C@H]3C[C@H](OC)[C@@H](O[C@H]4C[C@H](OC)[C@@H](O)[C@H](C)O4)[C@H](C)O3)[C@@H](C)/C=C/C=C3\CO[C@@H]4[C@H](O)C(C)=C[C@@H](C(=O)O1)[C@]34O)O2 | Oxysterols receptor LXR-alpha (NR1H3, Homo sapiens, UniProt Q13133) | – | – | 0.4 µM | – | coactivator recruitment efficacy | 3.57 ± 2.67% |
| Cc1ccc(S(=O)(=O)N(C)CC(=O)N(Cc2ccc(C3CCCCC3)cc2)c2ccc(C(=O)O)c(O)c2)cc1 | Signal transducer and activator of transcription 3 (STAT3, Homo sapiens, UniProt P40763) | co-immunoprecipitation | PANC-1 and MDA-MB-231 | concentration not given | – | EGFR association | decreased |
| Cc1cccc(-c2nsc(=O)o2)c1 | PSMB5 | inactivation | human PA28-activated proteasome | – | – | kobs/[I] | 11.3 M⁻¹ s⁻¹ |
| CCN(CC)C(=O)Oc1ccc(C(=O)Nc2cccc3cc[nH]c23)cc1 | Glutamate receptor ionotropic, NMDA 2D (Rattus norvegicus, UniProt Q62645, M586A) | inhibitor, two-electrode voltage clamp | Xenopus oocytes | 10 µM | relative to: untreated | current response | 98.4 ± 2.5% |
| COc1ccc2c(c1)c(CC(=O)O[C@@H](C(=O)O[C@H]1C[C@@]3(O)[C@@H](OC(=O)c4ccccc4)[C@@H]4[C@]5(OC(C)=O)CO[C@@H]5C[C@H](O)[C@@]4(C)C(=O)[C@H](OC(C)=O)C(=C1C)C3(C)C)[C@@H](NC(=O)c1ccccc1)c1ccccc1)c(C)n2C(=O)c1ccc(Cl)cc1 | Prostaglandin G/H synthase 1 (PTGS1, Ovis aries, UniProt P05979) | enzyme activity, inhibitor | purified enzyme | concentration not given | – | inhibition | no inhibition |
| Cc1ccc(-c2nsc(=O)o2)cc1 | PSMB5 | inactivation | human PA28-activated proteasome | – | – | kobs/[I] | 53.4 M⁻¹ s⁻¹ |
| CC(CCC(=O)N(CCNC(=O)C(F)(F)F)CC(=O)O)[C@H]1CC[C@H]2[C@@H]3[C@H](O)C[C@@H]4C[C@H](O)CC[C@]4(C)[C@H]3C[C@H](O)[C@]12C (stereo partly shown) | Hepatic sodium/bile acid cotransporter (SLC10A1, Homo sapiens, UniProt Q14973) | substrate | – | – | – | Km | 2190 ± 630 nM |
| CC1=C(c2ccc(F)cc2)S(=O)(=O)N=C1N1CCC(N2CCCCC2)CC1 | aacA-aphD (Staphylococcus aureus, UniProt P0A0C1) | acetyltransferase activity, inhibitor | – | concentration not given | – | inhibition | no inhibition |
| CCN1CCN(Cc2ccc(NC(=O)c3ccc(C)c(/C=C/c4cnc5[nH]ccc5c4OC)c3)cc2C(F)(F)F)CC1 | Casein kinase II subunit alpha' (CSNK2A2, Homo sapiens, UniProt P19784) | inhibitor, cell-based kinome screen | – | 5 µM | relative to: vehicle | log2 fold change | 0.167 log2 |
| CCN(CC)c1ccc2c(O)c(C=Nc3ccc(CC(=O)NNc4c5c(nc6ccccc46)CCCC5)cc3)c(=O)oc2c1 | BCHE | enzyme activity | – | Triton-containing buffer | – | efficacy | -61.9 ± 4.45% |
| CC#C/C(=N\OC[C@H]1COCCN1)c1ccc2ncnc(Nc3ccc(OCc4cccc(F)c4)c(Cl)c3)c2c1 | Proto-oncogene tyrosine-protein kinase ROS (ROS1, Homo sapiens, UniProt P08922) | kinase activity | – | 10 µM | – | inhibition | -1% |
| CCCN1CCN(c2ccc3c(c2)C2CC3CCN2C(=O)OCc2ccccc2)CC1 (stereo not shown) | Muscarinic acetylcholine receptor M4 (CHRM4, Homo sapiens, UniProt P08173) | binding, radioligand binding | – | – | – | Ki | 1630 nM |
| CC1(C)S[C@@H]2CS[C@@H](CS)N2[C@H]1C(=O)O | Metallo-beta-lactamase VIM-2 (VIM-2, Escherichia coli, UniProt Q5U7L7, R205L) | slow-binding inhibitor | Klebsiella pneumoniae | with: nitrocefin | – | k-2 (E*I breakdown) | 7e-10 ± 1e-05 s⁻¹ |
| Cc1ccc(-c2nsc(=O)o2)s1 | Proteasome subunit beta type-7 (PSMB7, Homo sapiens, UniProt Q99436) | inactivation | human PA28-activated proteasome | – | – | kobs/[I] | 0.11 M⁻¹ s⁻¹ |
| Cc1ccc(S(=O)(=O)Nc2ccccc2N2CCCCC2)s1 | BCHE | enzyme activity, fluorescence | – | – | – | efficacy | -114 ± 20% |
